# Results gathered from unrelated publications.
# Every numbered part comes from another study and shows a few of its results, in no order.

# Block 1 — method: aptamer microarray, sandwich; molecule type: DNA with 2'F-ANA; sample: in vitro; tested at: 200 nM; with: Cy3 exosite-II aptamer, 400 nM; direction: higher = stronger binding; oligonucleotide: GGTTGGTGTGGTTGG
# Target: Prothrombin, mature alpha-thrombin (F2, Homo sapiens, UniProt P00734)
# Setting: whole 15-mer aptamer, many near background
Modification,mean fluorescence intensity [a.u.]
2'F-ANA at 3 5 6 8 12 13,203
2'F-ANA at 1 2 5 6 7 8 14 15,51.4
2'F-ANA at 1 4 6 7 8 10 11 14,51.7
2'F-ANA at 2 4 9 11 13 14 15,77.4
2'F-ANA at 2 4 5 7 11 13 14,47.2
2'F-ANA at 3 4 5 8 12 13 14,52.8
2'F-ANA at 2 7 9 11 14 15,139
2'F-ANA at 1 3 4 10 11 12 14 15,56.1
2'F-ANA at 1 2 4 5 6 8 9 11 12 13 15,65.9
2'F-ANA at 1 2 5 7 13 14,45.7
2'F-ANA at 1 2 6 11 12 15,324
2'F-ANA at 2 4 6 11 12 14 15,103
2'F-ANA at 1 3 5 7 9 12,138
2'F-ANA at 1 2 3 4 5 8 9 10 11 15,54
2'F-ANA at 3 5 8 9 11 12 13 15,175
2'F-ANA at 8 9 10 11 13 15,120
2'F-ANA at 4 7 8 9 10 11 12 13,109
2'F-ANA at 6 7 8 9 10 11 14,129
2'F-ANA at 1 2 3 8 10 11 15,69.2
2'F-ANA at 1 7 11 14,56.6
2'F-ANA at 2 6 8 9 10 11 12 13,125
2'F-ANA at 7 8 12 14,350

# Block 2 — method: protein-binding microarray; molecule type: double-stranded DNA, one strand shown; sample: in vitro; tested at: 0.8 µM; setting: whole 60-bp probe, no competitor; direction: higher = stronger binding
# Target: Centromere-binding protein 1, full length, N-terminal tag (CBF1, Saccharomyces cerevisiae, UniProt P17106, residues 1-351)
# Sequence of UniProt P17106 (whole entry, looked up): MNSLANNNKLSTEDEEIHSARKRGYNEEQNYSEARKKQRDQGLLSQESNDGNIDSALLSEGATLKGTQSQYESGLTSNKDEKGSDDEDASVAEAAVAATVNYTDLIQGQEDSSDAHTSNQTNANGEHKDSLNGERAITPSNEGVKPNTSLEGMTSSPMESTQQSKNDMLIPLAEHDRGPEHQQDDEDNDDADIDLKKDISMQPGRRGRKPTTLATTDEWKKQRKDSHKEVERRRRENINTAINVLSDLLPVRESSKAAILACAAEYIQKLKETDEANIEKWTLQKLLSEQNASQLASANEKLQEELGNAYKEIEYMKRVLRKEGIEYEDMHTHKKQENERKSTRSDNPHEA
Oligonucleotide,fluorescence intensity
CTATTTCTACTCAAACACGTTTGAAAAACGGCATTCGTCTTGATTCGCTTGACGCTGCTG,548 a.u.
GAAAAAGATACGAATCACGGCAAACTATATTCATAGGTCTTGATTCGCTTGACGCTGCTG,574 a.u.
GAAAGAATACCAGATCACCTGTTTGGATATATATAGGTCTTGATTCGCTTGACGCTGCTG,1820 a.u.
CTATCCCTTTGGCGACGCGTCACCTGGGACGGGTTCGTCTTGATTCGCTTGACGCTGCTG,1100 a.u.
CTACACAATCCACGGCGCACGCAAGGGACAGCATTCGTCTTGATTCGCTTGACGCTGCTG,515 a.u.
CCTAACTACTATAGTCACAATTAATAGCTTCGTACAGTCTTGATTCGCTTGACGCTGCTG,561 a.u.
GAATATTCCTGATATCACGAGCTTGTCTTATAGTAGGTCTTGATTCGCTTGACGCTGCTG,1010 a.u.
GAAGTAGAATACGCACACGTGTACGCATGCTCCTAGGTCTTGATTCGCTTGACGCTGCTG,5060 a.u.
TGTACGAAGCTATTCCTCGTGCTTATAGTAGTTAGGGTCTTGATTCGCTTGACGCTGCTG,624 a.u.
CTAGTGATTTAATGATTCGTGACTATTTCTTTGTTCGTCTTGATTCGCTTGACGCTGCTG,704 a.u.
GAACCAACATTATTAATCGTGACTAATATAACATAGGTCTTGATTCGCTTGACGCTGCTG,919 a.u.
CTATTTGATAATGAGCATGTGATCCGGAAAGCTTTCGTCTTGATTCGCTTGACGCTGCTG,5730 a.u.
GAATTGTTTCAATTCCTGATGTTCATCAAAATATAGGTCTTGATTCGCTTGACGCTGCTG,496 a.u.
CTACATGAATTTCGTTCCGTGATTTTAATAGTATTCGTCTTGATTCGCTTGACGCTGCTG,680 a.u.
GAATGGATCCCTTCTGATGTATTTTCGGCGGCCTAGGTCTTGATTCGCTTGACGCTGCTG,496 a.u.
CTACCACTATAATCAGCTGTTATGACTTAGCCATTCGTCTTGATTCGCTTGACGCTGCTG,581 a.u.
CTAGATTTACATAATCAGGAGAGTCTATATATATTCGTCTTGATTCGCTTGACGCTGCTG,537 a.u.
GAAACATCATCAGGTGATGTCAACTCAGCTTATTAGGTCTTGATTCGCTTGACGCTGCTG,3120 a.u.

# Block 3 — method: protein binding microarray; molecule type: double-stranded DNA, one strand shown; sample: in vitro; tested at: not given; relative to: not given; direction: higher = stronger binding
# Target: Histone acetyltransferase KAT6A, winged helix 2, GST fusion (KAT6A, Homo sapiens, UniProt Q92794, residues 85-181)
# Setting: 8-mer, flanks averaged, mean of 2 arrays, mostly near background
# Construct (chain): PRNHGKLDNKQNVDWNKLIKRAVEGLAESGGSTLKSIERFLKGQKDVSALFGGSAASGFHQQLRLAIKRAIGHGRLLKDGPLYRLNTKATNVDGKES
Oligonucleotide,E-score
AGAGCCAA,0.0405
CCTTGGTC,0.0553
GAAGTGCC,-0.00788
CAACCAAG,0.0757
ACGGTCTC,-0.0869
GGTCAATA,-0.0887
AACCTCGA,0.166
CAGGTCAG,-0.0348
GGATTGGA,0.0488
GGGGGGGA,0.0151
GATCCAAA,0.144
ATTCAGAA,0.141
GATAAGGC,0.109
CAACTACC,-0.127
GCTACATA,-0.0519
TATGGGGA,-0.00177
AGACGAAC,0.0795
ACGGCGGC,0.17

# Block 4 — method: protein-binding microarray; molecule type: double-stranded DNA, one strand shown; sample: in vitro; tested at: 2540 nM top; setting: 60-bp whole probe; with: salmon DNA 0.4 mg/ml; relative to: random background probes; direction: higher = stronger binding; constant ends, left off below: GCCTAGCAC … GTCTTGATTCGCTTGACGCTGCTG
# Target: Interferon regulatory factor 3, full length, phosphomimetic (IRF3, Homo sapiens, UniProt Q14653, residues 1-427, S386D/S396D/S398D/S402D/T404D/S405D)
# Residues (chain): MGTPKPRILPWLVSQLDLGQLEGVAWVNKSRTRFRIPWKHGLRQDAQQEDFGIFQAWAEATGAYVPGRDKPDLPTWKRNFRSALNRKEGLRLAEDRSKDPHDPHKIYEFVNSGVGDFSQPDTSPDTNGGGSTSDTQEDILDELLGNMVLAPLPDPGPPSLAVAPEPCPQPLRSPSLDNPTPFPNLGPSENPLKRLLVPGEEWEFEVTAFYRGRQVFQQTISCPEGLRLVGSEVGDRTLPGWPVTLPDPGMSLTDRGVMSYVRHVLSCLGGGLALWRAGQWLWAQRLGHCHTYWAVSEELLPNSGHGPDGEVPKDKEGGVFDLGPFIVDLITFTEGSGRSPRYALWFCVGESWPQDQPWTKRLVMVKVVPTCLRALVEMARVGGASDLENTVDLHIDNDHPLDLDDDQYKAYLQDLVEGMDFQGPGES
Oligonucleotide,fitted relative affinity [z-score]
GACGGTCGCGGTTTCGGGACGTGCTAG,2.54
TTAGGTTTCCTTATACTTTAGTGCTAG,7.38
GACGGTTTCCTTCTCTTGACGTGCTAG,10
TTTGGTTTCGGTCTCGGTTAGTGCTAG,9.22
ATAGGTTTCTATATTTGCTTGTGCTAG,2.53
TCATCTGTCATGTTTGTCACTGTGCTA,0.324
TACGGTTCCCTTTTCCTGACGTGCTAG,6.24
CCATCTCTGCTCCTTCTGACAGTGCTA,2.49
GACGGTGTCGACTTTCGGGACGTGCTA,1.33
TTAGAACTGAGTCTCAATTAGTGCTAG,-0.304
TTAGGTTTCAGTATCGGTTAGTGCTAG,5.69
TTAGGACAGGGTTTCGGTTAGTGCTAG,2.91
GACGGTATGGGGTATCGGGACGTGCTA,-0.229
GACGGACTGGGTATCGGGGCGTGCTAG,-0.529
GACGGTCTTGGTATCGGGACGTGCTAG,0.687
TTAGGACTGGGGACTGGGTTAGTGCTA,-1.03
GACGGTGTCCTACTGCTGACGTGCTAG,0.808
GACGATCTCAGACTGGAGGCGTGCTAG,0.229
TTAGAATTCGGGACTGGATTAGTGCTA,-0.104
